Measured values of several laboratories.
Each numbered part is a random draw from the data of one study; scales do not carry over between parts.

Study 1 — method: RNA Bind-n-Seq; form: RNA; matrix: in vitro; tested at: not given; relative to: input RNA pool; reading: higher = stronger binding
Target: RING finger protein unkempt homolog, zinc fingers 1-6, GST-SBP tag (UNK, Homo sapiens, UniProt Q9C0B0, residues 30-357)
Setting: RNA with constant flanks, human and mouse sites, ends assumed
Shared flanks, not repeated: GGGAGUUCUACAGUCCGACGAUC … CAACAGAGGAUUGAGCAUCA
Target sequence (chain): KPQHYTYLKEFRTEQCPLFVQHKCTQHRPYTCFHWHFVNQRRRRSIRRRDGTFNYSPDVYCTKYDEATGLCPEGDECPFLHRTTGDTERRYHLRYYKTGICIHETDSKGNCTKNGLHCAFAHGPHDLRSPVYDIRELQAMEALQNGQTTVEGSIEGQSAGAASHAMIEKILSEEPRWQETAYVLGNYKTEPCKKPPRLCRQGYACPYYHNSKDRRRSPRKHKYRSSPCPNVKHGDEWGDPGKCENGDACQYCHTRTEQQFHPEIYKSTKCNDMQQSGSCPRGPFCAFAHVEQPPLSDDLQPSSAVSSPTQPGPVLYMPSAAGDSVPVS
Oligonucleotide	bound/input enrichment
UUAUAAUGGGCUUUUGCACUGUUAUUAUUUUUCCUUUGGAAUGUGAAGGUCUGAAUGAGGGUUUUGAUUUUGAAUGUUUCAAUGUUUUUGAGAAGCCUUGCUUACAUUUUAUGGUGUAGU	0.419 ratio
GGCACAAUUGGAUAUGGCCUUGGCUCUUCAAGACCAAAGGAUGCUCUUAGAAUCCCUCAAAGUAGCCACCAUGAUGUCAAAAGCAACUGAUAAAGUAUCCAAACCUAGAGAACAAAUCUC	0.768 ratio
CAGAAGAACUUCUUUACAGAUCUAAUUCAAGACUGGUCUAGUGAUAAUGCUCCAGACAUUUUCUCAUUUGUUCCAUACACAUGGAAUUUUAAAAUCAUGUUUCAUCAGUUUGAGAUGAUU	0.359 ratio
UUCAAGACGGAACUGCUAUGACUGGCCUAUUCAAGGCUUCAUAUUUUUAUACAGACUAUUUCACAGACCAUAGAUUUAUUUUAAAAGGGAAAAUCUCACACAUAAUUAAGCAGUGGAAAA	5.49 ratio
UUCAUUCAUGCUAAUGUUGACAUUGACUUAAUUAUCACAGAAGAACCUGAGAUUGGCAAUAUAGAAAAACCAGUAGAAAUUUUUCAUAUAAUAGAACAUUUUUGUCUUGGUAGAAGACGC	38.3 ratio
GAGGUAGAUCAAGAGCUCGUUGAACUACUAGUGAAAGAAACGGAAGCAAGAUUUCCAGAUGUAGCAAAUGGGUUUAUUGAGGAAAUAAUUCAUUUUAAGAAUUAUUAUGAUCUGAAUGUA	0.593 ratio
UUCACCGCCUUGGAGGAUUUUGUUCAGCACAAGAUUCAGAAGGCCUGCCAGCGGGCCCCUCCGGAGGCCCUGCCUGCCACCCCUGCCACCACAGCGUUGCUGGGCCAGGAGGUGGUGCCG	0.168 ratio
AAGCUAACAGAGCUCCUCCGAUACUACAUGCUCAACAUUGAAGCUGCUAAGGAUCUCUUAUACAGACGCACCAAAGCCCUCAUUGACUAUGAGAACUCAAACAAAGCUCUGGAUAAGGCC	0.0807 ratio
UGUCAACUGAGAGGCACAUACAAACUUAAUUUUGUUCCUCUUCAGUCUCUCUGUUUUGGAUUCUUCCUGGCAAUGUGUGCAGCAUGGGCUGAGCCUGGUGAUUGCCCUAGUGGGGAAGGC	0.155 ratio
CUUUCAGUAAGAACGACCCCCUAAAAGAAAACAGGAGGAGAUGCAGCGCUUUAGGCCGCCUUAGCCAGCAGCUUGUGUCCUACUCUGGAAGUUGUAACCUACAGUUUUUCUCACCUGUAA	0.212 ratio
AAGGAACUGGAAGUACCUCAUUUUCACCACGAGCUUGUAUAUGAAGCCAUUGUAAUGGUUUUAGAGUCAACUGGAGAAAGUGCAUUCAAGAUGAUCUUAGAUUUAUUAAAAUCCUUGUGG	0.548 ratio

Study 2 — method: protein-binding microarray; form: double-stranded DNA, one strand shown; matrix: in vitro; tested at: 2540 nM top; setting: 60-bp whole probe; added: salmon DNA 0.4 mg/ml; relative to: random background probes; reading: higher = stronger binding; shared flanks, not repeated: GCCTAGCAC … GTCTTGATTCGCTTGACGCTGCTG
Target: Interferon regulatory factor 3, full length, phosphomimetic (IRF3, Homo sapiens, UniProt Q14653, residues 1-427, S386D/S396D/S398D/S402D/T404D/S405D)
UniProt Q14653, sequence (whole entry, unmodified, looked up): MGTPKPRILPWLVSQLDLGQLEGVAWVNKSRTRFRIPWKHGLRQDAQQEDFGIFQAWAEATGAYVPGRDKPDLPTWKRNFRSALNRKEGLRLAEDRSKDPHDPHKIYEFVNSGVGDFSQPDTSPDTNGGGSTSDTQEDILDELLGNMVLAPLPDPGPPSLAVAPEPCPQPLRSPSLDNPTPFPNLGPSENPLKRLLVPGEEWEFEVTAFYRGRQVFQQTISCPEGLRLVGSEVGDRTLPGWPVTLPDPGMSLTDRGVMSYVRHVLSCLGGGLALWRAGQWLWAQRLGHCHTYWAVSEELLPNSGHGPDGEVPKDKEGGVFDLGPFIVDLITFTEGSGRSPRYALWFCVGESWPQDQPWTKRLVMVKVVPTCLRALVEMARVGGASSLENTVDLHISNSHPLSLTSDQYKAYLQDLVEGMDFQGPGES
Oligonucleotide	fitted relative affinity [z-score]
GACGATCCCAGTTTCGAGACGTGCTAG	2.11
TACGGTATCCTTATCCTGACGTGCTAG	4.88
TTAGGTGTCCTTTTCCTTTAGTGCTAG	5.74
TATTATATATTTATGTATACGTGCTAG	0.747
TCAAGAAAGAAAACGGGGAGGTGCTAG	-0.267
TCAAGTTCATGTTTTGGACTGTGCTAG	0.00508
TCATTTCCCACTTTCACACTGTGCTAG	3.29
TGGATACTTTGCTGAACATCGTGCTAG	0.00546
GACGGACTGGGACTGGGGAAGTGCTAG	-0.942
TTAGGACTGGACTATCGGGTAGTGCTA	-0.54
GACGGTATCGGGACTGGGGCCGTGCTA	1.44
TTAGGTTTCCTATTGCTTTAGTGCTAG	5.94
TCATTTTTATTTTCTGAACTGTGCTAG	3.21
TGAGGTTTCCTACTGCTTTAGTGCTAG	4.35
TTAGCTTCCAGTTTCGATTAGTGCTAG	4.52
GACTGTTTCGACTTTCGGGACGTGCTA	3.44
GACGGACTGTACACTGGGGACGTGCTA	-0.53
TTAGAACTGAGTCTTGATTAGTGCTAG	-0.458
TTAGATATCAGTTTCGATAAGTGCTAG	4.66
TCATGTCTCTGTCCCTGACTGTGCTAG	0.199
TTAGATATCAGACAGGATTAGTGCTAG	-0.169
TTAGGACTAGGACTGGGTTAGTGCTAG	-0.578
TTAGAACTGGGGACTGGAGTAGTGCTA	-0.924
GACGGTATCGACTTTTGGGACGTGCTA	0.824
TACGGTATCGGTTTCGGGACGTGCTAG	7.08

Study 3 — method: protein binding microarray; form: double-stranded DNA, one strand shown; matrix: in vitro; tested at: not given; relative to: not given; reading: higher = stronger binding
Target: Histone acetyltransferase KAT6A, winged helix 2, GST fusion (KAT6A, Homo sapiens, UniProt Q92794, residues 85-181)
Setting: 8-mer, flanks averaged, mean of 2 arrays, mostly near background
Residues (chain): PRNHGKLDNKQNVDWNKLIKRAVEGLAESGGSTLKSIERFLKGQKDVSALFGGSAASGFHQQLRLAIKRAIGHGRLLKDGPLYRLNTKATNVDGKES
Oligonucleotide	E-score
GGGAGTAC	-0.111
AACTGAGT	-0.136
ATACCGTC	-0.0589
ATTACAGG	-0.0995
GAGCCCAA	-0.0965
CGCAAATA	0.0432
CCACCTCC	-0.0568
CACGCTCA	-0.0188
GAGGCATA	0.0682
GATCCGAA	0.0467
TCTCATAA	0.0486
AATATATG	-0.0215
ATACTGTG	-0.164
AACAATAA	0.0822
GACCAGAA	-0.036
CGTCCCTC	0.04
CTAATGAG	-0.127
ATACTAGG	-0.0563
AAGTTGTC	0.0926
GCATGCTA	-0.0644
AGGGAGCA	-0.0594
CTAGGCCA	-0.0778
AACGGGAA	0.027
CAAGGGCG	0.0923
CTCATGGA	-0.159

Study 4 — method: RNA Bind-n-Seq; form: RNA; matrix: in vitro; tested at: 365 nM; relative to: no-protein control; reading: higher = stronger binding
Target: RNA binding protein fox-1 homolog 2, RRM domain, GST-SBP tag (RBFOX2, Homo sapiens, UniProt O43251-10, residues 100-194)
Setting: natural RNA segment, single round, ends assumed
Shared flanks, not repeated: GGGAGUUCUACAGUCCGACGAUC … UGGAAUUCUCGGGUGCCAA
Residues (chain): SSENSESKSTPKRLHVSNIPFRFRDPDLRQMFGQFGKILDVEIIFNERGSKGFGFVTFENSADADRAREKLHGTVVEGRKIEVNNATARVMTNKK
Oligonucleotide	RBNS enrichment (R)
AGACAUAGUUUUACUGCCCCCUUUUUAGCUCAUGGGAUUUCCUGUUUACAGGUAGCAAUAGUCAAUUAUUUAACUACUUAGUUGCCACCAGGAGUCACUGAGCCAAUGAC	0.226
CAUCCUCCAGCAGGCUGGCCCCACUCCCUUCCAUCUCCAAGUCUUCUUCCAGAGGAUGCAUUUGGAUCCCAGAGGAGUGUUUUCUGGAAGACAAUCUUUCAACAUCCCUA	0.39
CUGGAUGAGAAUUUGAGUGCUCUGAUCCCUCUACAGAGCUUCCCUGACUCAUUCUGAAGGAGCCCCAUUCCUGGGAAAUAUUCCCUAGAAACUUCCAAAUCCCCUAAGCA	1.01
UUCACAUUUAACCUUAAACACCUAUGCAGUCAUGUUGGGGGAGUGUCCCAAUGUUACCUCAACACCACGAAGCUUAUUUCUAUACUGGAGUUCUUCAGUAUAGAAAGUGG	0.319
CACUCUUUUUCUCGGCGAAUGCUUGGAACUGGGUGCUGAGUGCUGGAACUAGCCUUGUGUCUAUGAGGGCACCCUUCAGCUCACUCCACCCCCCAGGUAGACAGGUGCAU	0.597
GUGGACAGGUUCAGCGUUCCUUCUUUCGCACAACUUUUUUCUAAGUGUUCCAGUGACCAAGCCAGUCAUUCGGACACUGAUUUGCAGUGCAUUGGCAGUAAUUCACAAAU	0.666
GUUUCUCAUUUACUUUUUACUCUUAAUACUAAUGCUUAUGUGUUUCACUGAGUAUCAAAACUGCCAAGAAGGGUAACUAAGGUUCCUAAACUGUAAGAUGAGCAGGAGAU	0.292
CUAUGCUUACUCCUUGAAGCUCCUCCUAAAGGCCUCUCCUCCAUGCUAUACCCCUCUCCAUUACAGAAACUGGUCCUGUGAGCUAAAAAGUGGGUGUGACUCGUGACUGG	0.646
UUCAUGAUCAGUAGGAAGCAAAUUCUAAGACCUCAGGGUGUCUUUCUGAGUCUCUCAUUUCUUUAGGGAUGUGGAGAGAAGAUGAAGUAUAGCCGUGUGUAGUGUCGCCA	0.257

Excerpt of the above (study 3):
Oligonucleotide	E-score
GGGAGTAC	-0.111
AACTGAGT	-0.136
ATACCGTC	-0.0589
ATTACAGG	-0.0995
GAGCCCAA	-0.0965
CGCAAATA	0.0432
CCACCTCC	-0.0568
CACGCTCA	-0.0188
GAGGCATA	0.0682
GATCCGAA	0.0467
TCTCATAA	0.0486
AATATATG	-0.0215
